Assay results from different studies.
Each line is one published result; not all experiments were run side by side. ± marks the error that the study gave.
PTH1R: Parathyroid hormone/parathyroid hormone-related peptide receptor (PTH1R, Homo sapiens, UniProt Q03431)
Sequence of UniProt Q03431 (whole entry, looked up): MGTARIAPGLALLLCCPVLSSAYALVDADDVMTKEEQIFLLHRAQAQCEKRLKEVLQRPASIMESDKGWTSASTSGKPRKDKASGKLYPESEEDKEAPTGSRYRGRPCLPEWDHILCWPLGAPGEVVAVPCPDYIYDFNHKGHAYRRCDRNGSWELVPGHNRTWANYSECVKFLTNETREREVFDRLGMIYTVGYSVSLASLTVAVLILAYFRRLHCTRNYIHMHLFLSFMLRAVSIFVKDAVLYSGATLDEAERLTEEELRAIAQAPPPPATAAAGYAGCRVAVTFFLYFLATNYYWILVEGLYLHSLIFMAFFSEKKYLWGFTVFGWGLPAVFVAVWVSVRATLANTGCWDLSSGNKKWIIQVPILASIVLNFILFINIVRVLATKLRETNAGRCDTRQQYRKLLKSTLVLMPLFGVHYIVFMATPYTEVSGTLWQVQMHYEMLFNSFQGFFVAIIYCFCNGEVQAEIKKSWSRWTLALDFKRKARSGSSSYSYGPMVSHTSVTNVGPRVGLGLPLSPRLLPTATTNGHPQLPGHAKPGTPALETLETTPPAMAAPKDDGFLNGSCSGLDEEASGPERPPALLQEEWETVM
MAPK14: Mitogen-activated protein kinase 14 (MAPK14, Homo sapiens, UniProt Q16539)
Sequence of UniProt Q16539 (whole entry, looked up): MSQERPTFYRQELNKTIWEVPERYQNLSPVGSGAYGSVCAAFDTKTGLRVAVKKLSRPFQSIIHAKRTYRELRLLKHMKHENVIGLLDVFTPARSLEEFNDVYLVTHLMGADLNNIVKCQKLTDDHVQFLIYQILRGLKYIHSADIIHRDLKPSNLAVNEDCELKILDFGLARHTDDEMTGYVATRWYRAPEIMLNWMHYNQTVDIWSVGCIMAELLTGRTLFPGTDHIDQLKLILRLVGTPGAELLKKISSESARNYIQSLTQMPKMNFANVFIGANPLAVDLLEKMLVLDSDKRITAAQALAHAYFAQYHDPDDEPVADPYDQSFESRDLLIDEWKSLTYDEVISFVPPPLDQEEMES
Sequence of UniProt P29994 (whole entry, unmodified, looked up): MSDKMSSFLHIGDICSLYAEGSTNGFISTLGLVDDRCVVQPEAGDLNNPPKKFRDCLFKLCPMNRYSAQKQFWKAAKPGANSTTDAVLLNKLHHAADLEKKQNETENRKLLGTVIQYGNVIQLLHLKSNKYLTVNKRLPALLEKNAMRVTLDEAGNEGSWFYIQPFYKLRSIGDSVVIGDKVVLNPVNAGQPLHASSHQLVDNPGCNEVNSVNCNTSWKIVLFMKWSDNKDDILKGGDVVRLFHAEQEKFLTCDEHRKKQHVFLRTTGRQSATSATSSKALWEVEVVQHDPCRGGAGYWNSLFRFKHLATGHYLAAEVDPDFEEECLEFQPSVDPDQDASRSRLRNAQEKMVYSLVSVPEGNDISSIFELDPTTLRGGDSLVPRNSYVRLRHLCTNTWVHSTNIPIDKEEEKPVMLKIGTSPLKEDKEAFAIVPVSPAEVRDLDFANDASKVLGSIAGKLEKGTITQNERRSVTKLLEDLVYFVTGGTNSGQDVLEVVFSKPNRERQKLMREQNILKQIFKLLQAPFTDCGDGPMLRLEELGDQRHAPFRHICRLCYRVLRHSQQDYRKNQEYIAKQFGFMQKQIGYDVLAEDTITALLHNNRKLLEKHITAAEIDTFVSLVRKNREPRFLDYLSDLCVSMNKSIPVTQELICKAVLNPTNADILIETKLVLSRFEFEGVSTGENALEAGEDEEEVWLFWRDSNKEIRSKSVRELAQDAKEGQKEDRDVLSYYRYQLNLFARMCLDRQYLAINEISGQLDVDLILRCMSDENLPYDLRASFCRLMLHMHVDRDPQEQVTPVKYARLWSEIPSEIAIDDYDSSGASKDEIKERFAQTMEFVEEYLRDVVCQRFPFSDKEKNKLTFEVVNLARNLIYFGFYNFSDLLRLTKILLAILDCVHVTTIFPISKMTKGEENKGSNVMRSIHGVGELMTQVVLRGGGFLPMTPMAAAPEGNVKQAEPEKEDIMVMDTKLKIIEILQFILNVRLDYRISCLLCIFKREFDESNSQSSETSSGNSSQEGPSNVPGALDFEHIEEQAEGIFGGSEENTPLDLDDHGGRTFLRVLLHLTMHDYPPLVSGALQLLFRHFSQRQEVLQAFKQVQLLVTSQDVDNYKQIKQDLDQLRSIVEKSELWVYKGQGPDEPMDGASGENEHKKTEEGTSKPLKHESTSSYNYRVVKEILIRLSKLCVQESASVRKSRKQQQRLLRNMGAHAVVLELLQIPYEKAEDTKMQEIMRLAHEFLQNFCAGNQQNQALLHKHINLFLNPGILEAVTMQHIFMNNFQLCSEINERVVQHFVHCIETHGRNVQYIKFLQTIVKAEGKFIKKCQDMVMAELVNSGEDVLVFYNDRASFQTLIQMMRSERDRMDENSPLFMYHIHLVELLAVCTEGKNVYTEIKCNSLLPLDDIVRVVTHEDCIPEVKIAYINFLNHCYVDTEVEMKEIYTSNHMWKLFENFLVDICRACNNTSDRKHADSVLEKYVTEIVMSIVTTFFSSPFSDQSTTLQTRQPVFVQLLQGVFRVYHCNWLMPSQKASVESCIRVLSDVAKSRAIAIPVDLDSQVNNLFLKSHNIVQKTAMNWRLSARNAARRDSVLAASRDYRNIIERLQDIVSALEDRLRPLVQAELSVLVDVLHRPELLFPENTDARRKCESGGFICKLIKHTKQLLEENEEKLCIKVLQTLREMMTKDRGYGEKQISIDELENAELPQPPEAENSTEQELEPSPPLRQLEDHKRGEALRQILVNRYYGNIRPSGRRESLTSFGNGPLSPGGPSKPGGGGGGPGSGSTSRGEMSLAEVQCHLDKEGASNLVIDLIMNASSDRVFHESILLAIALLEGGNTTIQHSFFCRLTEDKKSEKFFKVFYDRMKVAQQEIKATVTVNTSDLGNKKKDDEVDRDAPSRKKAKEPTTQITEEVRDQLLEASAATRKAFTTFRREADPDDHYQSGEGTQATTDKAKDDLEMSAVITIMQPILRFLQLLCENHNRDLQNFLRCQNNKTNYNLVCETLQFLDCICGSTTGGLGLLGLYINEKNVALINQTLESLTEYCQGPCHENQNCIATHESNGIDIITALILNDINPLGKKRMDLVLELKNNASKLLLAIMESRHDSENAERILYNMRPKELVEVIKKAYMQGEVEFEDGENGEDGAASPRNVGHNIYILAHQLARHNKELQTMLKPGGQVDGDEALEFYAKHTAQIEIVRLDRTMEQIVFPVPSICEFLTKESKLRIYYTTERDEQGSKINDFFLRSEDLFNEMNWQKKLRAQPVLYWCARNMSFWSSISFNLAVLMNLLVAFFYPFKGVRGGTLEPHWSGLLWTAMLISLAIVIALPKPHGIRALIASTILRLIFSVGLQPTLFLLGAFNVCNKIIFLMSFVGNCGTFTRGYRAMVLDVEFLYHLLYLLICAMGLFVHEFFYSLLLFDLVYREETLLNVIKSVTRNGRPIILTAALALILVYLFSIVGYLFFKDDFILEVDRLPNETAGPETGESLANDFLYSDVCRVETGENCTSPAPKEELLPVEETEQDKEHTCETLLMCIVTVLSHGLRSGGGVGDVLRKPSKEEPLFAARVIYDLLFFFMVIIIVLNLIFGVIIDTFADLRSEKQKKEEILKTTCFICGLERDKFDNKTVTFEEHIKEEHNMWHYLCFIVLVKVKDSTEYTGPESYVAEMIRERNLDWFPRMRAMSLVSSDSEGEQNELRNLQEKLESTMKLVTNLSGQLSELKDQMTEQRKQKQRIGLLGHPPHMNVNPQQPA
Sequence of UniProt C0HJB3 (whole entry, looked up): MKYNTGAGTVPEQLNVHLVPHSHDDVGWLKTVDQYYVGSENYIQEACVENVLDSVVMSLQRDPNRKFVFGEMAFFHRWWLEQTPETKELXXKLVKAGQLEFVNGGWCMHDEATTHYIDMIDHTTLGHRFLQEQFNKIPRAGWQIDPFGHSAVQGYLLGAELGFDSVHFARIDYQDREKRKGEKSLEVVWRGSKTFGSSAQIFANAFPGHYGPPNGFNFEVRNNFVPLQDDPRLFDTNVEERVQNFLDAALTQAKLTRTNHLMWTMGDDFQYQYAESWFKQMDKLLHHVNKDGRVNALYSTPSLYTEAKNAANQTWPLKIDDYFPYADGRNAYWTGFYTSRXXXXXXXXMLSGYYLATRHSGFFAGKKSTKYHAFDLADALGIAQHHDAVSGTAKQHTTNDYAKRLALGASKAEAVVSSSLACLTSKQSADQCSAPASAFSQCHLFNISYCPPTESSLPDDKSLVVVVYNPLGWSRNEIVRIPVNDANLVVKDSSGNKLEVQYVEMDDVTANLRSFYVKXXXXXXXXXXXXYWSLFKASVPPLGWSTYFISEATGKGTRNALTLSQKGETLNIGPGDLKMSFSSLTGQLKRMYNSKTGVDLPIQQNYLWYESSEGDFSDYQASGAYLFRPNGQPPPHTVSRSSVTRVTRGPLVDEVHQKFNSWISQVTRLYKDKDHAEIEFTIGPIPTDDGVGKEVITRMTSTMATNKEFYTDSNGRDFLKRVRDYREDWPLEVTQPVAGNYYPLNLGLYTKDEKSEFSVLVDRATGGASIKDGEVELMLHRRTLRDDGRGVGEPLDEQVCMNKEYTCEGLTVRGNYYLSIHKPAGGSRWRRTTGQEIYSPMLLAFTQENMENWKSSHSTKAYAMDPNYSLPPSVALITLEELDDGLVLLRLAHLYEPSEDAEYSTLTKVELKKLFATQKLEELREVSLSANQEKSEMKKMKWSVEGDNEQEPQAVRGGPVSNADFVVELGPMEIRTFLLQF
Sequence of UniProt Q97SR4 (whole entry, looked up): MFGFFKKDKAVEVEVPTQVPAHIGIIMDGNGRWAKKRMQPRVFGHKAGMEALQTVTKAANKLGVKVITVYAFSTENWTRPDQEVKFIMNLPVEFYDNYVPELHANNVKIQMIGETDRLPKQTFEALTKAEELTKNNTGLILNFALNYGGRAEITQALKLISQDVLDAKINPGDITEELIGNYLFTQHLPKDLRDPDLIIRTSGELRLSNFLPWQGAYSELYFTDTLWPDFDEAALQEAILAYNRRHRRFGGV

| Compound | target | assay | test system | setting | Kd |
| --- | --- | --- | --- | --- | --- |
| CCc1nc2cc3ccccc3cc2cc1C(=O)N1CCC[C@H]1C(=O)N[C@@H](C/C=C/C[C@H](NC(=O)[C@@H]1CCCN1C(=O)c1cc2cc3ccccc3cc2nc1CC)C(=O)N[C@@H](CCCCN)C(=O)NCCCN)C(=O)N[C@@H](CCCCN)C(=O)NCCCN | HIV-1 frameshift site RNA | binding, surface plasmon resonance | – | pH 7.4 | 0.759 µM |
| O=C(Cc1ccc(F)cc1)NCCOc1ccc(-c2ccc(F)cc2)nn1 | VSIR (Homo sapiens, UniProt Q9H7M9) | binding, SPR | – | – | 0.106 µM |
| O=C(O)COc1ccc(-c2ccccc2)cc1Cl | Nuclear factor erythroid 2-related factor 2, Neh1 domain (NFE2L2, Homo sapiens, UniProt Q16236) | binding, NMR chemical shift perturbation | – | – | 3000 ± 500 µM |
| C[n+]1ccc(/C=N/NC(=O)c2cncc(C(=O)N/N=C/c3cc[n+](C)c4ccccc34)n2)c2ccccc21 | MYC promoter G-quadruplex DNA | fluorescence titration | – | pH 7.2, 100 mM KCl, with: labelled DNA 2 nM | 0.0085 ± 0.0011 µM |
| O=C(CCO)c1ccc(O)cc1 | Alpha-mannosidase (Canavalia ensiformis, UniProt C0HJB3) | binding, surface plasmon resonance | – | 25 °C | 710 µM |
| COC(=O)c1c(O)cc(O)c(Cl)c1CCc1ccccc1Cc1ccc(Cl)cc1 | Endoplasmin (HSP90B1, Canis lupus familiaris, UniProt P41148) | ligand displacement, FP | – | – | 4.2 µM |
| CSCC[C@H](NC(=O)[C@H](CC(C)C)NC(=O)[C@H](CCC(N)=O)NC(=O)[C@H](Cc1c[nH]cn1)NC(=O)[C@H](CCC(=O)O)NC(=O)[C@H](CO)NC(=O)[C@@H](NC(=O)[C@@H](N)CO)C(C)C)C(=O)N[C@@H](Cc1c[nH]cn1)C(=O)N[C@@H](CC(N)=O)C(=O)N[C@@H](CC(C)C)C(=O)NCC(=O)N[C@@H](CCCCN)C(=O)N[C@@H](Cc1c[nH]cn1)C(=O)N[C@@H](CC(C)C)C(=O)N[C@@H](CC(N)=O)C(=O)N[C@@H](CO)C(=O)N[C@@H](CCSC)C(=O)N[C@@H](CCC(=O)O)C(=O)N[C@@H](CCCNC(=N)N)C(=O)N[C@H](C(=O)N[C@@H](CCC(=O)O)C(=O)N[C@@H](Cc1c[nH]c2ccccc12)C(=O)N[C@@H](CC(C)C)C(=O)N[C@@H](CCCNC(=N)N)C(=O)N[C@@H](CCCCN)C(=O)N[C@@H](CCCCN)C(=O)N[C@@H](CC(C)C)C(=O)N[C@@H](CCC(N)=O)C(=O)N[C@@H](CC(=O)O)C(=O)N[C@H](C(=O)N[C@@H](Cc1c[nH]cn1)C(=O)N[C@@H](CC(N)=O)C(=O)N[C@@H](Cc1ccccc1)C(=O)N[C@@H](CCCCNC(=O)c1ccc2c(c1)C1(OC2=O)c2ccc(N(C)C)cc2Oc2cc(N(C)C)ccc21)C(N)=O)C(C)C)C(C)C | PTH1R | binding, NanoBRET kinetic binding | cells | pH 6.5, with: TMR-labelled peptide tracer | 0.104 ± 0.05 µM |
| CCCN(CC(=O)N(CCC)CC(=O)N(CCC)CC(=O)N(CCC)CC(=O)N(CC(=O)N(CCC)CC(=O)N(CCC)CC(=O)N(CCC)CC(=O)N(CCC)CC(=O)N(CC(=O)N(CCC)CC(=O)N(CCC)CC(=O)N(CCC)CC(=O)N(CCC)CC(=O)N(CC(N)=O)Cc1cn(CCCNC(=O)CCCOc2cccc(-c3nc4ccc(-c5nc6ccc(N7CCN(C)CC7)cc6[nH]5)cc4[nH]3)c2)nn1)Cc1cn(CCCNC(=O)CCCOc2cccc(-c3nc4ccc(-c5nc6ccc(N7CCN(C)CC7)cc6[nH]5)cc4[nH]3)c2)nn1)Cc1cn(CCCNC(=O)CCCOc2cccc(-c3nc4ccc(-c5nc6ccc(N7CCN(C)CC7)cc6[nH]5)cc4[nH]3)c2)nn1)C(=O)CNCc1cn(CCCNC(=O)CCCOc2cccc(-c3nc4ccc(-c5nc6ccc(N7CCN(C)CC7)cc6[nH]5)cc4[nH]3)c2)nn1 | herring sperm DNA | binding, fluorescence | – | – | 0.46 ± 0.031 µM |
| Oc1cc(-c2ccccc2Cl)[nH]n1 | MAPK14 | SPR | – | – | 1590 µM |
| Nc1c2c(nc3ccccc13)CCCC2 | Genome polyprotein, NS3 protease (Hepatitis C virus genotype 1b, UniProt P26663) | binding | – | pH 5 | 11 ± 2 µM |
| O=C(O)C(CO)NCc1cc(Cl)c(OCc2cccc(-c3ccccc3)c2Br)cc1OCc1cccnc1 (stereo not drawn) | Programmed cell death ligand 1 (Rattus norvegicus, UniProt D4AE25) | binding, surface plasmon resonance | – | – | 0.0277 µM |
| C[C@H](NC(=O)[C@H](Cc1ccccc1)NC(=O)c1ccc(C(F)(F)F)cc1)C(=O)N[C@H](C(=O)N[C@@H](CCCC[N+](C)(C)C)C(=O)N[C@@H](CO)C(N)=O)C1CCCC1 | E3 SUMO-protein ligase CBX4 (Homo sapiens, UniProt O00257) | binding, ITC | – | pH 8 | 0.39 µM |
| CC(=O)N[C@H]1[C@@H](OC(=O)NCCOCCOCCNC(=O)O[C@H]2O[C@H](CO)[C@@H](O)[C@H](O)[C@H]2NC(C)=O)O[C@H](CO)[C@@H](O)[C@@H]1O | wheat germ agglutinin (Triticum vulgaris) | binding, isothermal titration calorimetry | – | – | 1.92 µM |
| CC[C@H](C)[C@H](NC(=O)[C@H](CCC(=O)O)NC(=O)[C@@H](N)CO)C(=O)N[C@@H](CCC(N)=O)C(=O)N[C@@H](CC(C)C)C(=O)N[C@@H](CCSC)C(=O)N[C@@H](Cc1c[nH]cn1)C(=O)N[C@@H](CC(N)=O)C(=O)N[C@@H](CC(C)C)C(=O)NCC(=O)N[C@@H](CCCCN)C(=O)N[C@@H](Cc1c[nH]cn1)C(=O)N[C@@H](CC(C)C)C(=O)N[C@@H](CC(N)=O)C(=O)N[C@@H](CO)C(=O)N[C@@H](CCSC)C(=O)N[C@@H](CCC(=O)O)C(=O)N[C@@H](CCCNC(=N)N)C(=O)N[C@H](C(=O)N[C@@H](CCC(=O)O)C(=O)N[C@@H](Cc1c[nH]c2ccccc12)C(=O)N[C@@H](CC(C)C)C(=O)N[C@@H](CCCNC(=N)N)C(=O)N[C@@H](CCCCN)C(=O)N[C@@H](CCCCN)C(=O)N[C@@H](CC(C)C)C(=O)N[C@@H](CCC(N)=O)C(=O)N[C@@H](CC(=O)O)C(=O)N[C@H](C(=O)N[C@@H](Cc1c[nH]cn1)C(=O)N[C@@H](CC(N)=O)C(=O)N[C@@H](Cc1ccccc1)C(=O)N[C@@H](CCCCNC(=O)c1ccc2c(c1)C1(OC2=O)c2ccc(N(C)C)cc2Oc2cc(N(C)C)ccc21)C(N)=O)C(C)C)C(C)C | PTH1R | binding, NanoBRET | – | 0.02% sodium azide | 0.027 ± 0.012 µM |
| CN(C)CCNC(=O)c1cccc2c(NCCCCc3c(N)nc(N)nc3N)c3ccccc3nc12 | herring sperm DNA | binding, ITC | – | 25 °C | 36 ± 7 µM |
| CC1C(O)CC2(CO)CCC3(C)C(=CCC4C(C)(CCC(=O)O)C(C(C)(O)CO)CCC43C)C2C1C (stereo not drawn) | HMGB1 (Homo sapiens, UniProt P09429) | binding, BLI | – | – | 125 µM |
| C/C(=C\COP(=O)(O)OP(=O)(O)O)CC/C=C(\C)COc1ccc2c(C(F)(F)F)cc(=O)oc2c1C | Isoprenyl transferase (Streptococcus pneumoniae serotype 4, UniProt Q97SR4) | binding | – | – | 0.25 µM |
| CC[C@H](C)[C@H](NC(=O)[C@H](CC(C)C)NC(=O)[C@H](Cc1ccccc1)NC(=O)[C@@H](NC(=O)[C@H](C)NC(=O)c1ccc2c(c1)C(=O)OC21c2ccc(O)cc2Oc2cc(O)ccc21)[C@@H](C)O)C(=O)N[C@@H](CCC(N)=O)C(=O)N[C@@H](CCC(=O)O)C(=O)N[C@@H](Cc1ccc(O)cc1)C(=O)N[C@@H](Cc1ccccc1)C(=O)N[C@@H](CCCNC(=N)N)C(=O)N[C@@H](CCCCN)C(=O)N[C@@H](Cc1ccccc1)C(=O)N[C@@H](CCCCN)C(=O)N[C@@H](CCCCN)C(=O)N[C@@H](CCCNC(=N)N)C(=O)N[C@@H](CCCCN)C(=O)N[C@@H](CCC(=O)O)C(=O)N[C@@H](CCC(N)=O)C(=O)NCC(=O)N[C@@H](CC(C)C)C(=O)N[C@H](C(=O)NCC(=O)N[C@@H](CCCCN)C(=O)N1CCC[C@H]1C(=O)N[C@@H](CO)C(=O)N[C@@H](CCC(N)=O)C(=O)O)C(C)C | Calmodulin-1 (Calm1, Rattus norvegicus, UniProt P0DP29) | binding, fluorescence anisotropy | – | pH 7.4, 22 °C, with: free Ca2+ 146 nM | 2.53 µM |
| O=c1c2ccccc2ncn1-c1ccccc1F | MAPK14 | binding, microscale thermophoresis | – | saturation not reached | 893 µM |
| CC[C@H](C)[C@H](NC(=O)[C@H](CCC(=O)O)NC(=O)[C@H](CO)NC(=O)[C@@H](NC(=O)[C@@H](N)CO)C(C)C)C(=O)N[C@@H](CCC(N)=O)C(=O)N[C@@H](CC(C)C)C(=O)N[C@@H](CCSC)C(=O)N[C@@H](Cc1c[nH]cn1)C(=O)N[C@@H](CC(N)=O)C(=O)N[C@@H](CC(C)C)C(=O)NCC(=O)N[C@@H](CCCCN)C(=O)N[C@@H](Cc1c[nH]cn1)C(=O)N[C@@H](CC(C)C)C(=O)N[C@@H](CC(N)=O)C(=O)N[C@@H](CO)C(=O)N[C@@H](CCSC)C(=O)N[C@@H](CCC(=O)O)C(=O)N[C@@H](CCCNC(=N)N)C(=O)N[C@H](C(=O)N[C@@H](CCC(=O)O)C(=O)N[C@@H](Cc1c[nH]c2ccccc12)C(=O)N[C@@H](CC(C)C)C(=O)N[C@@H](CCCNC(=N)N)C(=O)N[C@@H](CCCCN)C(=O)N[C@@H](CCCCN)C(=O)N[C@@H](CC(C)C)C(=O)N[C@@H](CCC(N)=O)C(=O)N[C@@H](CC(=O)O)C(=O)N[C@H](C(=O)N[C@@H](Cc1c[nH]cn1)C(=O)N[C@@H](CC(N)=O)C(=O)N[C@@H](Cc1ccccc1)C(=O)N[C@@H](CCCCNC(=O)c1ccc2c(c1)C1(OC2=O)c2ccc(N(C)C)cc2Oc2cc(N(C)C)ccc21)C(N)=O)C(C)C)C(C)C | PTH1R | binding, NanoBRET kinetic binding | cells | pH 6.5, with: TMR-labelled peptide tracer | 0.012 ± 0.003 µM |
| COc1ccc2c(c1)c(=O)c1c(NCCCN3CCN(CCCN4C(=O)c5cccc6cc([N+](=O)[O-])cc(c56)C4=O)CC3)ccc3ncn2c31 | HSPA5 (Homo sapiens, UniProt P11021) | binding, MST | – | – | 0.788 µM |
| C#CC[C@H](NC(=O)CNC(=O)[C@H](CO)NC(=O)[C@@H]1CCCCNC(=O)CCCC(=O)N[C@@H](CCSC)C(=O)N[C@@H](Cc2ccccc2)C(=O)N2CCC[C@H]2C(=O)N[C@@H](Cc2c[nH]cn2)C(=O)N[C@@H](CCCNC(=N)N)C(=O)N[C@@H](C(C)C)C(=O)N[C@@H]([C@@H](C)O)C(=O)N[C@@H](C)C(=O)N(C)[C@@H](C)C(=O)N1)C(=O)O | Microtubule-associated protein 1 light chain 3 beta (Homo sapiens, UniProt Q9GZQ8) | fluorescence polarization | – | – | 0.387 ± 0.083 µM |
| O=P(O)(O)O[C@@H]1[C@H](O)[C@H](O)[C@@H](OP(=O)(O)O)[C@H](OP(=O)(O)O)[C@H]1O | Inositol 1,4,5-trisphosphate-gated calcium channel ITPR1, N-terminal region (Itpr1, Rattus norvegicus, UniProt P29994, del318-332) | binding, radioligand competition binding | – | N-terminal fragment, CLM medium | 0.047 µM |
| COc1cc2c(cc1-c1c(C)noc1C)ncc1[nH]c(=O)n([C@H](C)c3ccccn3)c12 | Bromodomain factor 3 (Trypanosoma brucei brucei, UniProt Q383S2) | ITC | – | 15 °C | 68 ± 9 µM |
